Results gathered from unrelated publications.
Every numbered part comes from another study and shows a few of its results, in no order. Positions count from the first letter of the parent shown.

Series 1 — read-out: binding; technique: phage display NGS; form: peptide; tested at: concentration not given; reference: input library
Target: UDP-N-acetylglucosamine--peptide N-acetylglucosaminyltransferase 110 kDa subunit (OGT, Homo sapiens, UniProt O15294)
Residues (O15294 1-1046): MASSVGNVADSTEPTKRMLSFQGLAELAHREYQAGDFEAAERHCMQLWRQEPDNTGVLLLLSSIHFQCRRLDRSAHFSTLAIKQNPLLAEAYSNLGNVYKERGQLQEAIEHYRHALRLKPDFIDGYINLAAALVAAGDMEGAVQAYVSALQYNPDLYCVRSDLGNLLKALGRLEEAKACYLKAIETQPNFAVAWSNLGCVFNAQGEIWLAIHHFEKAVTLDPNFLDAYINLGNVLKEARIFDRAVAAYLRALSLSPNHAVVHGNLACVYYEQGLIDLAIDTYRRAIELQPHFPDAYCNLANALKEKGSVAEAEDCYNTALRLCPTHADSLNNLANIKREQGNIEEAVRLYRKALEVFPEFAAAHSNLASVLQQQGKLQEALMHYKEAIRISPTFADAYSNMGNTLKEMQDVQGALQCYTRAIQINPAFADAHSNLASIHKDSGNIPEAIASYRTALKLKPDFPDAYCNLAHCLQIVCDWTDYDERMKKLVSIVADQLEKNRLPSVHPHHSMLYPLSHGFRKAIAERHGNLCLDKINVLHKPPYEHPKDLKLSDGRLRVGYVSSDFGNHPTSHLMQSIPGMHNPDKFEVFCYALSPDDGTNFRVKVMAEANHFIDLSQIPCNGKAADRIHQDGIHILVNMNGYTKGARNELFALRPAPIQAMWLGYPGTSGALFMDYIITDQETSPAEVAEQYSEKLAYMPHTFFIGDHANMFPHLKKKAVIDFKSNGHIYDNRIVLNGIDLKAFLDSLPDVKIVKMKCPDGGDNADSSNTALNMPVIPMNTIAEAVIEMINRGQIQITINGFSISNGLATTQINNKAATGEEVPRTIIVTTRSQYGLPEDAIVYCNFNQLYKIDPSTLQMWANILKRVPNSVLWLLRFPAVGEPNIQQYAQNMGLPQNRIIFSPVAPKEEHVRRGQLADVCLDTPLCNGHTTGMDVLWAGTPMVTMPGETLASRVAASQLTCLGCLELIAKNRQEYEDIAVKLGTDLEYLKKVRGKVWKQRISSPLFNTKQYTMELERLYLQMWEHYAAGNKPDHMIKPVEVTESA
| Molecule | enrichment fold change |
| --- | --- |
| SHTHTQRDFHGIYSN | 9.8 |
| NPPHSVHHTQIHRHN | 6.99 |
| HREQHDMTYHMIHSR | 4.57 |
| HRHDYDYQHHLPRYF | 4.18 |
| QPQHHMWQHHAYDIK | 6.49 |
| HQSHYQHTSPAIIHK | 4.87 |
| RHPHEHDLHDVITHA | 9.06 |
| HEPKHAEMESYYNIH | 2.6 |

Series 2 — target: vanadate, free oxyanion; technique: microfluidic competitive inhibition; sample: in vitro, cell-free expressed; tested at: not given; reading: lower = stronger binding
Setting: derived from inhibition constants, unchanged parent 676 nM
Starting sequence: PafA, mature enzyme, eGFP fusion (Elizabethkingia meningoseptica, UniProt Q9KJX5); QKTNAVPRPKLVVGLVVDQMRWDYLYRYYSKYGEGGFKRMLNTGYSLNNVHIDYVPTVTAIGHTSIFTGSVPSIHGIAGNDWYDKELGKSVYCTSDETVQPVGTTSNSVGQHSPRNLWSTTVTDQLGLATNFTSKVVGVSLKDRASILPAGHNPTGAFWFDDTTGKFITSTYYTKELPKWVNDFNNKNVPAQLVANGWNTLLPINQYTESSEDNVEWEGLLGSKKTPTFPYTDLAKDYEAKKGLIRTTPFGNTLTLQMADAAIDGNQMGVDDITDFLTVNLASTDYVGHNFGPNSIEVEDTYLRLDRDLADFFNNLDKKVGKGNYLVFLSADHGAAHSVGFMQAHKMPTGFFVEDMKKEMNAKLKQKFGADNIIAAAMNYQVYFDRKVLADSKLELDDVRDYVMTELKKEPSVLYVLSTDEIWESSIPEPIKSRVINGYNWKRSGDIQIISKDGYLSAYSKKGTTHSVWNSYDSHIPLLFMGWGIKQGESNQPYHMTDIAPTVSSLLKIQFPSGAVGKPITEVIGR
| Change | oxyanion analog dissociation constant |
| --- | --- |
| Q100G | 1.17 µM |
| A235G | 973 nM |
| D420G | 719 nM |
| V327G | 477 nM |
| L303V | 638 nM |
| Q492G | 593 nM |
| G369A | 732 nM |
| S471G | 754 nM |

Series 3 — target: CCNA1, cyclin fold, Cln2 fusion (human); technique: yeast growth competition, sequencing; sample: yeast; setting: strong parent motif; reference: not given; reading: higher = stronger binding; starting sequence: viral docking peptide; YKVKRRLVFGADD
| Change | normalised enrichment score |
| --- | --- |
| D12R | 0.579 |
| K2Y | 0.925 |
| D12V | 1.26 |
| K2H | 1.36 |
| V3A | 0.884 |
| V3W | -0.0378 |
| F9V | 0.305 |
| L7Y | 0.144 |

Further values, each from its own experiment
| SMILES | cell line | tested at | setting | reference | measurement | result |
| --- | --- | --- | --- | --- | --- | --- |
| CNCc1ccc(-c2[nH]c3cc(F)cc4c3c2CCNC4=O)cc1 | RPE-1 BRCA1-/- | 0.5 µM | unit not given | untreated | clonogenic survival | 0 |

For quick reference, copied from above (series 2):
| Change | oxyanion analog dissociation constant |
| --- | --- |
| Q100G | 1.17 µM |
| D420G | 719 nM |
| Q492G | 593 nM |
| V327G | 477 nM |
